Experimental data of several laboratories.
Each numbered part is a random draw from the data of one study; scales do not carry over between parts. Changes are numbered by the printed parent chain.
Chain of UniProt Q9C7I9 (whole entry, looked up): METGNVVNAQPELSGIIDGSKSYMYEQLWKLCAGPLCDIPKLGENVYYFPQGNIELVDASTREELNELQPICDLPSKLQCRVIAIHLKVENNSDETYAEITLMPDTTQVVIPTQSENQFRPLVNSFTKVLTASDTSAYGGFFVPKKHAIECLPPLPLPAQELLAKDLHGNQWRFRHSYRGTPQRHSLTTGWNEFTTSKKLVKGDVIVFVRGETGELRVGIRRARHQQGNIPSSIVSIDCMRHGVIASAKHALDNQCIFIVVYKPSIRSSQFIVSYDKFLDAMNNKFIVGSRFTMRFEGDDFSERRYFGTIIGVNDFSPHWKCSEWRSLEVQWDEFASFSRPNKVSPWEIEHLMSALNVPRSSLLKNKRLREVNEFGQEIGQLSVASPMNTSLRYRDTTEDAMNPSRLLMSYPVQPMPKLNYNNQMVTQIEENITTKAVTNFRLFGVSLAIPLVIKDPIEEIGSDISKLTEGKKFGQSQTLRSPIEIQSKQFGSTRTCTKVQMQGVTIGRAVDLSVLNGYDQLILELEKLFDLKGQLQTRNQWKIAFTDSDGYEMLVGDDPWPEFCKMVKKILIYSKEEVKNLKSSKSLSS
Chain of UniProt O24408 (whole entry, looked up): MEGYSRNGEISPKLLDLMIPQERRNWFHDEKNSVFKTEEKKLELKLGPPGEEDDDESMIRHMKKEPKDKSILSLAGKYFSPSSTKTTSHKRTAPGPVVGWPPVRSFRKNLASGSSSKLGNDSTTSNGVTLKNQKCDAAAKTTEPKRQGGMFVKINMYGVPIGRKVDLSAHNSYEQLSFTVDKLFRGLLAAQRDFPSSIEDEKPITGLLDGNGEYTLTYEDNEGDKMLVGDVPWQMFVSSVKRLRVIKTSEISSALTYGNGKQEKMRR
Chain of UniProt Q38828 (whole entry, looked up): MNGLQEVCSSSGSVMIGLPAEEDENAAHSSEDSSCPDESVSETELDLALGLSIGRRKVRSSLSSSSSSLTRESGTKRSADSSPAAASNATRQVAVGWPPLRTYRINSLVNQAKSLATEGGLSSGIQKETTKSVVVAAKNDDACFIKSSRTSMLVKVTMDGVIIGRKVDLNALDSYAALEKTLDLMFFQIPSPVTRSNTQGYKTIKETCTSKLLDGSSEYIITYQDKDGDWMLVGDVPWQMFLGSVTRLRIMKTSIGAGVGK
Chain of UniProt Q9LQE8 (whole entry, looked up): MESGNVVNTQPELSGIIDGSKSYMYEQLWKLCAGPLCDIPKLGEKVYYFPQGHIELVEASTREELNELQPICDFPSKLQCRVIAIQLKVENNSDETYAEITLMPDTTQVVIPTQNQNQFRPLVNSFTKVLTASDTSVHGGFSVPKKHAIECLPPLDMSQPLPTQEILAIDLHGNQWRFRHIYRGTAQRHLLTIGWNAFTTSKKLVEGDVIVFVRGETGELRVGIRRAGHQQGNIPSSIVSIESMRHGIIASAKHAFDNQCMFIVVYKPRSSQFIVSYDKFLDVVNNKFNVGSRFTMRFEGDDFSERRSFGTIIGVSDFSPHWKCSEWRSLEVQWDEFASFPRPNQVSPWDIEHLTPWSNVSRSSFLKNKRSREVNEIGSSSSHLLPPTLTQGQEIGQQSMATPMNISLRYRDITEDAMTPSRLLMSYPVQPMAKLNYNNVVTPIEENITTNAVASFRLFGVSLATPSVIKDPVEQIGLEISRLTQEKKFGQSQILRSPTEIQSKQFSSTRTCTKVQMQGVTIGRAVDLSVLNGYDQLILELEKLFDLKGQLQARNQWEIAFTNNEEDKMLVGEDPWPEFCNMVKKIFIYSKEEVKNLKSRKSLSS

Sample 1 — technique: DHFR PCA, deep sequencing; medium: yeast; together with: (+)-ABA 4.8 µM; baseline: wild-type fitted maximum; reading: higher = stronger binding
Target: ABI1, truncated, D143A, DHFR fusion (Arabidopsis thaliana)
Notes: methotrexate growth selection, single substitutions
Parent: PYL1, truncated, DHFR fusion (Arabidopsis thaliana); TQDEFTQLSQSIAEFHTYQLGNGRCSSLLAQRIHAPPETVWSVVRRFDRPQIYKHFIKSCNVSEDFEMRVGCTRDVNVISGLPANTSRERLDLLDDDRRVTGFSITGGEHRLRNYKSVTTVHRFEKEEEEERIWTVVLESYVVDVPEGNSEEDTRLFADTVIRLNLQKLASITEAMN
Under “relative binding score”, `V76K` is recorded as -1.4%.
For `E130W`, “relative binding score” read 36%.
Under “relative binding score”, `E151S` is recorded as 69%.
`N149Q`: “relative binding score” 25.6%.
For `M68C`, “relative binding score” read 59.7%.
Under “relative binding score”, `V100E` is recorded as 1.89%.
Under “relative binding score”, `L169C` is recorded as -12.5%.
For `C60P`, “relative binding score” read 5.92%.
Under “relative binding score”, `F157A` is recorded as 1.23%.
For `N85A`, “relative binding score” read 83.6%.
`F103I`: “relative binding score” -2.25%.
For `I162K`, “relative binding score” read -0.629%.
For `E128I`, “relative binding score” read 43.8%.
Under “relative binding score”, `V78K` is recorded as -1.12%.
`E131C`: “relative binding score” 76.2%.
For `T6C`, “relative binding score” read 69.4%.
`E64P` — result for “relative binding score”: 79.8%.

Sample 2 — technique: protein binding microarray; form: double-stranded DNA, one strand shown; medium: in vitro; tested at: not given; baseline: not given; reading: higher = stronger binding
Target: Histone acetyltransferase KAT6A, both winged helices, GST fusion (KAT6A, Homo sapiens, UniProt Q92794, residues 1-181)
Notes: 8-mer, flanks averaged, mean of 2 arrays, mostly near background
Construct (chain): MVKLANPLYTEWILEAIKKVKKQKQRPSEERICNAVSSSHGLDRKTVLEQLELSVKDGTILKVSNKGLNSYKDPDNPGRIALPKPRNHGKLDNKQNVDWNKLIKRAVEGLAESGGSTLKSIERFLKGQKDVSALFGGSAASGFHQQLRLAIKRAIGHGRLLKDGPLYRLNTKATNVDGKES
`GTGGAAAC` gave an E-score of -0.124.
With `CGACCGAG` the E-score was 0.139.
The E-score of `AAAGCATT` is reported as -0.193.
The E-score of `CCACTTCC` is reported as -0.0861.
The E-score of `CGAGAGGA` is reported as -0.0336.
For `CGCCGTAA`, the E-score was 0.339.
`ACGGTCAG` gave an E-score of 0.0938.
With `ATACTAAG` the E-score was -0.092.
The E-score of `AATTGTGA` is reported as -0.0824.
For `GCAGGAAA`, the E-score was -0.186.
For `ATACTTTA`, the E-score was -0.177.
With `CGTTAGGA` the E-score was 0.0905.
`AATCGAGA` has an E-score of 0.0254.
`AACAGGGA` gave an E-score of -0.126.
`GGTTGCGA` has an E-score of 0.0271.
The E-score of `AGGGATTG` is reported as -0.116.
The E-score of `AGGCTGGA` is reported as -0.19.
For `GGAAGAAC`, the E-score was 0.0214.
The E-score of `TCCTGGCA` is reported as -0.148.
`ATACGCAC` gave an E-score of 0.114.
For `TCAACGGA`, the E-score was 0.186.
`ACCTCAAC` gave an E-score of -0.127.
With `GACCGGAA` the E-score was 0.149.
For `CACACTAG`, the E-score was -0.0872.
`CTGTAAAG` has an E-score of -0.0604.

Sample 3 — target: CCNB2, cyclin fold, Cln2 fusion (human); technique: yeast growth competition, sequencing; medium: yeast; notes: weak parent motif; baseline: not given; reading: higher = stronger binding
Parent: USP37 docking peptide (human); PSAKRSLGFLPQP
`PAAKRSLGFLPQP [S2A]` — result for “normalised enrichment score”: 0.772.
`PSAKRSLGALPQP [F9A]` — result for “normalised enrichment score”: -0.0386.
Under “normalised enrichment score”, `PSAKRSLAFLPQP [G8A]` is recorded as 0.57.
`PSAKRSLGFLPQA [P13A]`: “normalised enrichment score” 0.236.
`PSAKRSLGFLPAP [Q12A]` — result for “normalised enrichment score”: 0.521.
`PSAKRSAGFLPQP [L7A]`: “normalised enrichment score” -0.0188.

Sample 4 — target: ATF1, bZIP domain (human); technique: DHFR protein complementation; medium: yeast; baseline: wild-type JUN-FOS pair; reading: higher = stronger binding
Notes: single substitutions, most at no-binding floor
Parent: JUN, bZIP domain (human); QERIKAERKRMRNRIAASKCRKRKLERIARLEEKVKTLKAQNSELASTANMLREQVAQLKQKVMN; partner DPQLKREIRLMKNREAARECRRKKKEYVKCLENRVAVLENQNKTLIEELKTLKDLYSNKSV
`L52Y` gave a binding fitness of -1.49 natural log.
`E32A` has a binding fitness of -1.48 natural log.
The binding fitness of `L38P` is reported as -1.53 natural log.
With `Q55W` the binding fitness was -1.56 natural log.
The binding fitness of `I28T` is reported as -1.43 natural log.
With `A40P` the binding fitness was -1.56 natural log.
With `A40K` the binding fitness was -1.54 natural log.
`Q41S` gave a binding fitness of -1.41 natural log.
For `S47Y`, the binding fitness was -1.42 natural log.
`A49T` gave a binding fitness of -1.58 natural log.
For `K39D`, the binding fitness was -1.44 natural log.
The binding fitness of `S43T` is reported as -1.48 natural log.
With `L38W` the binding fitness was -1.45 natural log.
`K36L` has a binding fitness of -1.47 natural log.
The binding fitness of `A57N` is reported as -1.51 natural log.

Sample 5 — Sequence: B1 (IAA3); technique: two-hybrid; reading: higher = firmer interaction
T1: itself; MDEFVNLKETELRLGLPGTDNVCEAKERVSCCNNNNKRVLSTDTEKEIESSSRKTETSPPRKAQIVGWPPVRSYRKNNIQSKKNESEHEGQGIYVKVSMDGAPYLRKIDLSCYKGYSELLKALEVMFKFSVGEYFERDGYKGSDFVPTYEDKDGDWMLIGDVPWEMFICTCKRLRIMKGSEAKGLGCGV
B1: IAA3 (Arabidopsis thaliana, UniProt Q38822); chain MDEFVNLKETELRLGLPGTDNVCEAKERVSCCNNNNKRVLSTDTEKEIESSSRKTETSPPRKAQIVGWPPVRSYRKNNIQSKKNESEHEGQGIYVKVSMDGAPYLRKIDLSCYKGYSELLKALEVMFKFSVGEYFERDGYKGSDFVPTYEDKDGDWMLIGDVPWEMFICTCKRLRIMKGSEAKGLGCGV
The positive tests was 2 (T1, itself; baseline: out of 4 tests).
For ARF14 497-605 (Arabidopsis thaliana, UniProt Q9LQE8); baseline: out of 4 tests: positive tests read 0.
The positive tests was 2 (IAA18 (Arabidopsis thaliana, UniProt O24408); baseline: out of 2 tests).
It gave 1 for positive tests (IAA10 (Arabidopsis thaliana, UniProt Q38828); baseline: out of 4 tests).
ARF20 484-590 (Arabidopsis thaliana, UniProt Q9C7I9); baseline: out of 4 tests — positive tests: 0.

A few entries again (sample 3):
`PAAKRSLGFLPQP [S2A]` — result for “normalised enrichment score”: 0.772.
`PSAKRSLGALPQP [F9A]` — result for “normalised enrichment score”: -0.0386.
Under “normalised enrichment score”, `PSAKRSLAFLPQP [G8A]` is recorded as 0.57.
`PSAKRSLGFLPQA [P13A]`: “normalised enrichment score” 0.236.
`PSAKRSLGFLPAP [Q12A]` — result for “normalised enrichment score”: 0.521.
`PSAKRSAGFLPQP [L7A]`: “normalised enrichment score” -0.0188.
